Measured values pooled from the literature.
Every numbered part comes from another study and shows a few of its results, in no order.

Set 1
Target: Interferon regulatory factor 3, full length, phosphomimetic (IRF3, Homo sapiens, UniProt Q14653, residues 1-427, S386D/S396D/S398D/S402D/T404D/S405D)
Method: protein-binding microarray
Form: double-stranded DNA, one strand shown
Medium: in vitro
Concentration: 2540 nM top
Notes: 60-bp whole probe
Together with: salmon DNA 0.4 mg/ml
Baseline: random background probes
Reading: higher = stronger binding
Constant ends, left off below: GCCTAGCAC … GTCTTGATTCGCTTGACGCTGCTG
Target sequence (chain): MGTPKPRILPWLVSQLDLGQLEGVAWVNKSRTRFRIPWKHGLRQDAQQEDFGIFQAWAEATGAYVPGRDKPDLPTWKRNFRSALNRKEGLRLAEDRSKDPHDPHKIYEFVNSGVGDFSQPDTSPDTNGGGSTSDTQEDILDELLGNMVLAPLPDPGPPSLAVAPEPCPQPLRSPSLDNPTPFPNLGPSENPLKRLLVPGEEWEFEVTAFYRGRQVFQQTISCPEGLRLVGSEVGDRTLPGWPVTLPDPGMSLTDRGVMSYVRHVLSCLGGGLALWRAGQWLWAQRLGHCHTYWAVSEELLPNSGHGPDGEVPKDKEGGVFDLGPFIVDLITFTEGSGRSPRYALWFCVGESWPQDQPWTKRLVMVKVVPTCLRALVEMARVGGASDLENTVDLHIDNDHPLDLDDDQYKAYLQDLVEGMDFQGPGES
| Sequence | fitted relative affinity |
| --- | --- |
| TCAGTTCTGGGAAATATTACTGTGCTA | 0.57 z-score |
| GTAGAAAATTCATGTTATAAGTGCTAG | -0.0552 z-score |
| TCAGATCTCAGACTGGATTAGTGCTAG | 0.889 z-score |
| TTAGATTTCAGACTGGATGAGTGCTAG | 0.619 z-score |
| TTAGGACTGGGGACTAGGTTAGTGCTA | -1 z-score |
| GAGGAACTGAGTATCGAGACGTGCTAG | -0.364 z-score |
| TTAGGACTGTGGTATCGGTTAGTGCTA | 0.623 z-score |
| GACCGTATCGACTTTCGGGACGTGCTA | 2.19 z-score |
| TTACGTATCGGGACTGGGTTAGTGCTA | 1.54 z-score |
| GACGGACTGGTCACTGGGGACGTGCTA | -0.653 z-score |
| GACGGTTTCCATCTCCTGACGTGCTAG | 8.14 z-score |
| GACGGTCTCGGTCTCTGGACGTGCTAG | 1.11 z-score |
| AACGGACTGCTTCTCCTGACGTGCTAG | -0.183 z-score |
| TTAGGCCTCGGTTTCGGTTAGTGCTAG | 3.69 z-score |
| GGCGATATCGGGACTGGAGACGTGCTA | -0.0737 z-score |
| TTAGAACTGGGGACTTGATTAGTGCTA | -0.888 z-score |
| TCATGTTTTCATTTTATACTGTGCTAG | 3.21 z-score |
| TAAAACATCATTTTTCCCTCGTGCTAG | 0.596 z-score |
| CTCTGTTTATGTCTGGGTATGTGCTAG | 0.405 z-score |
| TTAGGTCTGGGTTTCGGTTAGTGCTAG | 2.63 z-score |
| GATGGTATCGGGTTTCGGGACGTGCTA | 2.87 z-score |
| TTAGGTATCGGACTGGGTTTGTGCTAG | 1.06 z-score |
| TGGGATTTTGTCCTCCCCTCGTGCTAG | -0.642 z-score |
| GTAGGTTTCCTTTCCCTTTAGTGCTAG | 10.8 z-score |
| TCATTTTCCTATGTCATACTGTGCTAG | 3.9 z-score |

Set 2
Target: TAR DNA-binding protein 43, full length, His tag (TARDBP, Homo sapiens, UniProt Q13148, residues 1-414)
Method: RNA Bind-n-Seq
Form: RNA
Medium: in vitro
Concentration: 20 nM
Notes: 6-mer, flanks averaged, single round
Together with: 150 mM LiCl
Baseline: input library
Reading: higher = stronger binding
| Sequence | 6-mer enrichment (R) |
| --- | --- |
| CAGUAA | 0.852 |
| CUUUCC | 0.956 |
| CGGUGU | 1.23 |
| GCCCGU | 0.971 |
| UACCGG | 0.874 |
| ACCUUU | 0.993 |
| UAUCAG | 0.859 |
| UCCUGA | 0.846 |
| CUCGCA | 0.817 |
| UAUUUU | 1.38 |
| GAUCUC | 0.834 |
| CCGUUU | 1.02 |
| UGGAGA | 1.07 |
| UGUACA | 0.914 |
| UCGAGU | 0.963 |
| AUGUUG | 1.27 |
| AUUUUC | 1.11 |
| CGUCCA | 0.873 |
| UAGAGC | 0.946 |
| UUCGCU | 0.884 |
| GAGUUG | 1.17 |
| UCAAUA | 0.894 |
| AAGAUA | 0.817 |
| CUUACU | 0.903 |

Set 3
Target: Prothrombin, mature alpha-thrombin (F2, Homo sapiens, UniProt P00734)
Method: aptamer microarray, sandwich
Form: DNA with 2'F-ANA
Medium: in vitro
Concentration: 200 nM
Notes: whole 15-mer aptamer, many near background
Together with: Cy3 exosite-II aptamer, 400 nM
Reading: higher = stronger binding
Sequence: GGTTGGTGTGGTTGG
| Modification | mean fluorescence intensity [a.u.] |
| --- | --- |
| 2'F-ANA at 5 8 13 15 | 58.6 |
| 2'F-ANA at 1 3 7 9 11 12 14 15 | 101 |
| 2'F-ANA at 1 4 5 10 | 44 |
| 2'F-ANA at 3 4 6 7 8 9 10 12 | 337 |
| 2'F-ANA at 1 4 5 6 7 10 11 15 | 43.4 |
| 2'F-ANA at 1 3 7 8 10 15 | 126 |
| 2'F-ANA at 2 3 4 6 9 13 14 | 199 |
| 2'F-ANA at 1 3 4 5 7 9 10 11 13 | 57 |
| 2'F-ANA at 1 3 4 7 8 11 14 15 | 79.3 |
| 2'F-ANA at 1 2 4 7 8 9 10 12 14 15 | 52.3 |
| 2'F-ANA at 2 4 5 8 15 | 72.1 |
| 2'F-ANA at 2 3 8 9 11 13 14 | 425 |
| 2'F-ANA at 2 5 6 13 14 | 69.8 |
| 2'F-ANA at 1 4 7 9 10 11 13 14 | 43.4 |
| 2'F-ANA at 1 6 7 11 13 14 | 51.6 |
| 2'F-ANA at 3 4 5 6 7 9 11 12 13 15 | 88.6 |
| 2'F-ANA at 1 3 5 6 7 | 70.2 |
| 2'F-ANA at 1 5 6 9 11 12 15 | 86.1 |
| 2'F-ANA at 1 5 8 13 | 52.2 |
| 2'F-ANA at 2 3 5 9 10 11 13 14 | 82.4 |
| 2'F-ANA at 1 4 6 7 8 9 10 13 14 15 | 45.4 |
| 2'F-ANA at 3 8 11 13 14 | 561 |
| 2'F-ANA at 4 5 6 8 10 12 13 15 | 48.7 |
| 2'F-ANA at 1 2 3 5 6 9 11 | 57.4 |
| 2'F-ANA at 2 6 7 8 9 10 15 | 174 |

Set 4
Target: RING finger protein unkempt homolog, zinc fingers 1-6, GST-SBP tag (UNK, Homo sapiens, UniProt Q9C0B0, residues 30-357)
UniProt Q9C0B0, sequence (30-357, looked up): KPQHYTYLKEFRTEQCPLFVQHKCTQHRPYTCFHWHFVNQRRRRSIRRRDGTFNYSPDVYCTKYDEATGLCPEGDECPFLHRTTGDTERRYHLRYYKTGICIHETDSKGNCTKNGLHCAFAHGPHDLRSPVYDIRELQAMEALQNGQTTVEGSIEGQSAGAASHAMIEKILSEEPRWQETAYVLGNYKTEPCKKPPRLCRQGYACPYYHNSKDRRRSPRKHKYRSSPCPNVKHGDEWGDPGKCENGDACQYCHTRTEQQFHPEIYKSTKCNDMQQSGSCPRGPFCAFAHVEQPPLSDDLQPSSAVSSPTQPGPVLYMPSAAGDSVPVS
Method: RNA Bind-n-Seq
Form: RNA
Medium: in vitro
Concentration: not given
Notes: RNA with constant flanks, human and mouse sites, ends assumed
Baseline: input RNA pool
Reading: higher = stronger binding
Constant ends, left off below: GGGAGUUCUACAGUCCGACGAUC … CAACAGAGGAUUGAGCAUCA
| Sequence | bound/input enrichment [ratio] |
| --- | --- |
| AAAGAAUUACAGACGACCCUUGUCCGUGGGUAUCAGGUUCACGUGCUCACUUUCACUGUUUACACGUUGCUGCAAGGCCUCUCCAGCAAGCUGCAAGUUGGGGAUUUAGAUUCUUGUCUU | 0.23 |
| AUUCCCUCCAAAAUCAUCAGUUUAUCGGUGGUGCCAGGGGGUUGUGGUAUCAAAGAGAAGGUUAGCCCGGGACUUCUGCAAGUAGGGCAGUCUUCAACAUCUGUGGGAGAUAAAGGAAUU | 0.169 |
| UUCUGCACAUCGGAUGCACGCAUAAACUUGAAUUUAUUCUAGCAGUUAACUUAGUUAGAUGGGGCAGAGGAAGUGAAAACUUGAGGGCAUUAUUAAUGCUGCUUUUAGCGUAUGUCCCUU | 0.563 |
| UGCCCUUCCAGUAAUAGUUAAUUUUGAAUAAUUAUGUAUUGUCUGAAAAGCAAUGAGUGCUAGUUUUUGUUUUCUUUGUUUAAAAAAAAAAACAAAAAUCCCCACAAACGUUUGUUGUUU | 2.81 |
| UCAGUGAAAUGCUUUCCUAAAAAGUGAAAGGCUAAAGAUGUCUAGACAAAAUUUAGUGGCUUUGACAGUGACCACCCUUCUGGGUGUGGCCAUGGGGGGAUUUGUCCUGUGGAAAGGCAU | 0.387 |
| GCCCAGGGAUUCCAGGUUGAAUACAAAGAUUUUCCCAAGAACAACAAGAACGAGUGUGUAUCUCUCAUCAACUGCUCCUCACAGCCGCCUCUCGUCAGUCAUGGCAUCGGCAAGGAUGUG | 0.165 |
| ACCUCCCAAGUCCUUUAUGAAUGGGAGCAAGGCUUUUCCCAGUCCUUCACGCAAGAGCAAGUAGCUGAUAUUGACGGGCAGUAUGCAAUGACUAGGGCUCAGAGGGUCCGAGCUGCCAUG | 0.17 |
| AAUCUGGGUUUUGUCAAAAUAGUACUAUAGAAUAAAUGGGAGAAAGAAGAAAGCAAGCUAAAUGGGAAACCGUGAAUGAAUGGAGGACGAAAGAAGAAAAAGGCAAAGUAAAGAGAGAAG | 5.56 |
| AAUUCUCUGAAAAUCCCAUUAGGAAACCAGGUGUGAAAAGGGCUCAGUAGCUUCUCUGAGUGGCGUUUUUAGCUGACUGGAAGUGCUUAAUCUGGAUCGUCUUUUUUUUUUUUUUUUUUU | 3.19 |
| UUUGGUGUUAUCCGGUCACUUAUGGCGUUUAGGCUAACAGGUGGCACCAAAGACUACAUUGUAGUUGGCAGUGACUCAGGCCGGAUUGUUAUCUUGGAAUACCAGCCAUCAAAGAAUAUG | 0.766 |
| UGAGAGAUCCUAAUAAUCAACUUCACGUAAUUAAAAAUUUGAAGAUAGCAGUAAGCAACAUUGUCACCCAGCCACCUCAGCCUGGAGCCAUCCGGAAGCUUUUGAAUGAUGUUGUUUCUG | 0.25 |

Some of these lines once more (set 3):
| Modification | mean fluorescence intensity [a.u.] |
| --- | --- |
| 2'F-ANA at 1 3 4 7 8 11 14 15 | 79.3 |
| 2'F-ANA at 1 4 7 9 10 11 13 14 | 43.4 |
| 2'F-ANA at 2 4 5 8 15 | 72.1 |
| 2'F-ANA at 2 3 4 6 9 13 14 | 199 |
| 2'F-ANA at 5 8 13 15 | 58.6 |
| 2'F-ANA at 1 4 5 6 7 10 11 15 | 43.4 |
| 2'F-ANA at 1 2 4 7 8 9 10 12 14 15 | 52.3 |
| 2'F-ANA at 4 5 6 8 10 12 13 15 | 48.7 |
| 2'F-ANA at 2 3 5 9 10 11 13 14 | 82.4 |
| 2'F-ANA at 2 6 7 8 9 10 15 | 174 |
| 2'F-ANA at 3 4 6 7 8 9 10 12 | 337 |
| 2'F-ANA at 2 3 8 9 11 13 14 | 425 |
